Measured values gathered from unrelated publications.
Every numbered part comes from another study and shows a few of its results, in no order.
Sequence of UniProt P42679 (whole entry, looked up): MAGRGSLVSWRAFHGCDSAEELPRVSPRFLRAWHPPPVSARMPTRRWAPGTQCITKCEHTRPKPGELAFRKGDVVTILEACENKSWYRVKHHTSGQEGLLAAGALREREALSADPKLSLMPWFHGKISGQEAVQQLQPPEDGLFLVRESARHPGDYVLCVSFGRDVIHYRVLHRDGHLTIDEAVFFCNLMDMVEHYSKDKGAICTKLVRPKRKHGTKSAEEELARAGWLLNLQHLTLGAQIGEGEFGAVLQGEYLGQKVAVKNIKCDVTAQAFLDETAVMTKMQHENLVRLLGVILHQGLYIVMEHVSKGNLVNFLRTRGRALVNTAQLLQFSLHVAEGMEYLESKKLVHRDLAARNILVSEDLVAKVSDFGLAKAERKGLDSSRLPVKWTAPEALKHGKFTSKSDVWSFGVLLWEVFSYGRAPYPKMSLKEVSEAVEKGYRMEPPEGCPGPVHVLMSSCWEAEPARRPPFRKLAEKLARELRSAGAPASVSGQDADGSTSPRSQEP
Sequence of UniProt P00519 (whole entry, unmodified, looked up): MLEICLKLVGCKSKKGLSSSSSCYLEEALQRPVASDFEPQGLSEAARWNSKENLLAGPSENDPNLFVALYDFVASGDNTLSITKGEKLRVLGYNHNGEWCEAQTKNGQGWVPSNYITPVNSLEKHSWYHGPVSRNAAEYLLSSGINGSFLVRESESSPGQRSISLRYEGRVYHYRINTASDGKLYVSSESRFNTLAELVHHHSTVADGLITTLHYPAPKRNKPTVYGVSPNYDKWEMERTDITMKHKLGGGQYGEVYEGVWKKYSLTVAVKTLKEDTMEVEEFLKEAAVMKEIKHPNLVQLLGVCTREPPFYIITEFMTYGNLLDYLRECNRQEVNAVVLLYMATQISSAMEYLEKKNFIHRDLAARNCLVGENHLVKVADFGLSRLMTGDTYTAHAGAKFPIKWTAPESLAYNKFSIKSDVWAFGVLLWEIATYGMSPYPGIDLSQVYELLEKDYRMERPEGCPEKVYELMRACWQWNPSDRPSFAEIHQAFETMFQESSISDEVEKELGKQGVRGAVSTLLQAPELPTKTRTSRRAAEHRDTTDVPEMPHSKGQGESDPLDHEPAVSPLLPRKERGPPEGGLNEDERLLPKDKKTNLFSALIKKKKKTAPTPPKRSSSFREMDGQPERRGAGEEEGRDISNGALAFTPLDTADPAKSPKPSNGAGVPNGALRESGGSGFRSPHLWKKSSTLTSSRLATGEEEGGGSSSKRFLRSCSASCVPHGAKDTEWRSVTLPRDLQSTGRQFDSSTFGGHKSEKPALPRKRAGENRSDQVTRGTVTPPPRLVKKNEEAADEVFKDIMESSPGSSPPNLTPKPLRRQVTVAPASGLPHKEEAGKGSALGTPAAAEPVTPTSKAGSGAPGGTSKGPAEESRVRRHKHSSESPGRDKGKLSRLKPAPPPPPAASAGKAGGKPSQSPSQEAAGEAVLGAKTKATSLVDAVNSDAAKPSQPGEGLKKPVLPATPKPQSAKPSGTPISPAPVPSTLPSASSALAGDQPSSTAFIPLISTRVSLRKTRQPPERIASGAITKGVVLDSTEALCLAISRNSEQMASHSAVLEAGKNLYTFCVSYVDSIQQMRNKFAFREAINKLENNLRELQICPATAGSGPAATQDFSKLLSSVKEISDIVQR
Sequence of UniProt Q6P2M8 (whole entry, looked up): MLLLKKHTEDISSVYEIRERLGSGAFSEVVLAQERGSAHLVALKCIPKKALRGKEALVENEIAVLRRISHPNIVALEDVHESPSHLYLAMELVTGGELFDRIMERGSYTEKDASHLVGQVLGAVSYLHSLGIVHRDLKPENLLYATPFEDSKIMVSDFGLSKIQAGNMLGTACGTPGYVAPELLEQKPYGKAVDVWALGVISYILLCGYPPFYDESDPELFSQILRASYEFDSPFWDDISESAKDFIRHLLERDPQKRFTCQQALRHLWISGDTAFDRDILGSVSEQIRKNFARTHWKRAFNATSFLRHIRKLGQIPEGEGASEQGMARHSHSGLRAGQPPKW
Sequence of UniProt Q2M2I8 (whole entry, looked up): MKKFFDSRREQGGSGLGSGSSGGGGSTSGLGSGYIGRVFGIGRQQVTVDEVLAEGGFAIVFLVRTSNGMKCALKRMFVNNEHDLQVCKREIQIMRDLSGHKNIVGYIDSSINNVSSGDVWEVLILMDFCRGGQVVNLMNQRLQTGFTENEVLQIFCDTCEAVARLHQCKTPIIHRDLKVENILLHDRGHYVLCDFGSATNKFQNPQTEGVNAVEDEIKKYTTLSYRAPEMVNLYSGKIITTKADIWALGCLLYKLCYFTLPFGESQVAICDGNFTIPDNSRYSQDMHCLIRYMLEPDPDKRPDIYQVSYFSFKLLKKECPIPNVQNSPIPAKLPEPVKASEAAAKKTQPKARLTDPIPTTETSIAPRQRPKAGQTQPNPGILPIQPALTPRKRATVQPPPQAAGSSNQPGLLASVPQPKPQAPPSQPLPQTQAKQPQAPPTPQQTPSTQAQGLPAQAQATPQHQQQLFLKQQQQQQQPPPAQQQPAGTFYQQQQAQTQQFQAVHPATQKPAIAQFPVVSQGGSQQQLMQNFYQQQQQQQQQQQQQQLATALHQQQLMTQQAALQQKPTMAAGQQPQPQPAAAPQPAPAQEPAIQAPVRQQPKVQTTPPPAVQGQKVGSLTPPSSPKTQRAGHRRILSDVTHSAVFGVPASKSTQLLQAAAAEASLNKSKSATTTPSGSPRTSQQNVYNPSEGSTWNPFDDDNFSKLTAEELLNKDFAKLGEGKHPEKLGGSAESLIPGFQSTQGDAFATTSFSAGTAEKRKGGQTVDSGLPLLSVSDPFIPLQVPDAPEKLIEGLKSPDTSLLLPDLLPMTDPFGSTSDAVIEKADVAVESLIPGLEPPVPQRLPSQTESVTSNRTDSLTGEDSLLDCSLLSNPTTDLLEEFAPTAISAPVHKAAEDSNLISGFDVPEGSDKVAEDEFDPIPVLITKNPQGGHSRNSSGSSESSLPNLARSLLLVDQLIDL
Sequence of UniProt P29597 (whole entry, looked up): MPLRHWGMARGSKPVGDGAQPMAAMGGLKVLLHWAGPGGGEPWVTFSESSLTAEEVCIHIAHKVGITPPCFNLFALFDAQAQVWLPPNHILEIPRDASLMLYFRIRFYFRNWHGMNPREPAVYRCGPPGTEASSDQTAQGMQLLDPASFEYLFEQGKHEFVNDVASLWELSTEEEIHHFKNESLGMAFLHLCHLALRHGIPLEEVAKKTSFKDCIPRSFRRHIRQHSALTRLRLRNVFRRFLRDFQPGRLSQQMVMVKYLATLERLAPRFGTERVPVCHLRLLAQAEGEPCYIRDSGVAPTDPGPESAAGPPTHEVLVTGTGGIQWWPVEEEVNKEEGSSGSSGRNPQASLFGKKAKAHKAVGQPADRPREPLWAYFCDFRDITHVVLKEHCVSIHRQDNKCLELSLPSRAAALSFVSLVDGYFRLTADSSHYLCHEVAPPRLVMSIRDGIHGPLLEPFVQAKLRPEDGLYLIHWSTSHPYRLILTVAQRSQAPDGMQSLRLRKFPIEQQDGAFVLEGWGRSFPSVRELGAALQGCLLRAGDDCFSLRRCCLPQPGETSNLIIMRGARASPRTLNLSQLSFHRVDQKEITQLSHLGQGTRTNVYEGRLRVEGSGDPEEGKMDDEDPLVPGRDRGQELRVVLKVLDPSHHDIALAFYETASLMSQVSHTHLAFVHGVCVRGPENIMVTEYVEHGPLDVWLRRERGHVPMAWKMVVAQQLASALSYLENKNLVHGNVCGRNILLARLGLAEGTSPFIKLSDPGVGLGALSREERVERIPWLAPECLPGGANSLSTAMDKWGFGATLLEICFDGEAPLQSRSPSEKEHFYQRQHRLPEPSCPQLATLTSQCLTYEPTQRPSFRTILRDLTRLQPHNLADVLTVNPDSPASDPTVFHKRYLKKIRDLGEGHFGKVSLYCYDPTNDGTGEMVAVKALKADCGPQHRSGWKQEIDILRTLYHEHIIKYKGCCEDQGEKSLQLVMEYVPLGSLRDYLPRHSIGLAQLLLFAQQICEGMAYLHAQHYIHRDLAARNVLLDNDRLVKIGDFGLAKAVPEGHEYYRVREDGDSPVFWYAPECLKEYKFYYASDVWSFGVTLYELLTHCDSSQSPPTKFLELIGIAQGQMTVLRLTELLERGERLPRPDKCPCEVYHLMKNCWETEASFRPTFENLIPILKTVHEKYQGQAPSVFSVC

Series 1
SMILES: CO[C@@H]1[C@H](N(C)C(=O)c2ccccc2)C[C@H]2O[C@]1(C)n1c3ccccc3c3c4c(c5c6ccccc6n2c5c31)C(=O)NC4
Mode: inhibitor
Tested at: 1 µM
| target | read-out | inhibition |
| --- | --- | --- |
| NEK6 (Homo sapiens, UniProt Q9HC98) | enzyme activity | 0% |
| PKMYT1 (Homo sapiens, UniProt Q99640) | enzyme activity | 14% |
| MAP3K1 (Homo sapiens, UniProt Q13233) | enzyme activity | 8% |
| Tyrosine-protein kinase ABL1, phosphorylated (ABL1, Homo sapiens, UniProt P00519, F317I) | enzyme activity | 32% |
| MATK (Homo sapiens, UniProt P42679) | enzyme activity | 63% |
| BMPR1A (Homo sapiens, UniProt P36894) | enzyme activity | 6% |
| ACVR2A (Homo sapiens, UniProt P27037) | enzyme activity | 0% |
| PNCK (Homo sapiens, UniProt Q6P2M8) | cell-free assay | 24% |
| PIK3CA (Homo sapiens, UniProt P42336) | enzyme activity | 24% |
| CLK4 (Homo sapiens, UniProt Q9HAZ1) | enzyme activity | 68% |
| Non-receptor tyrosine-protein kinase TYK2, JH2 pseudokinase domain (TYK2, Homo sapiens, UniProt P29597) |  | 95% |

Series 2
Target: Serine/threonine-protein kinase TAO3 (TAOK3, Homo sapiens, UniProt Q9H2K8)
Sequence of UniProt Q9H2K8 (whole entry, looked up): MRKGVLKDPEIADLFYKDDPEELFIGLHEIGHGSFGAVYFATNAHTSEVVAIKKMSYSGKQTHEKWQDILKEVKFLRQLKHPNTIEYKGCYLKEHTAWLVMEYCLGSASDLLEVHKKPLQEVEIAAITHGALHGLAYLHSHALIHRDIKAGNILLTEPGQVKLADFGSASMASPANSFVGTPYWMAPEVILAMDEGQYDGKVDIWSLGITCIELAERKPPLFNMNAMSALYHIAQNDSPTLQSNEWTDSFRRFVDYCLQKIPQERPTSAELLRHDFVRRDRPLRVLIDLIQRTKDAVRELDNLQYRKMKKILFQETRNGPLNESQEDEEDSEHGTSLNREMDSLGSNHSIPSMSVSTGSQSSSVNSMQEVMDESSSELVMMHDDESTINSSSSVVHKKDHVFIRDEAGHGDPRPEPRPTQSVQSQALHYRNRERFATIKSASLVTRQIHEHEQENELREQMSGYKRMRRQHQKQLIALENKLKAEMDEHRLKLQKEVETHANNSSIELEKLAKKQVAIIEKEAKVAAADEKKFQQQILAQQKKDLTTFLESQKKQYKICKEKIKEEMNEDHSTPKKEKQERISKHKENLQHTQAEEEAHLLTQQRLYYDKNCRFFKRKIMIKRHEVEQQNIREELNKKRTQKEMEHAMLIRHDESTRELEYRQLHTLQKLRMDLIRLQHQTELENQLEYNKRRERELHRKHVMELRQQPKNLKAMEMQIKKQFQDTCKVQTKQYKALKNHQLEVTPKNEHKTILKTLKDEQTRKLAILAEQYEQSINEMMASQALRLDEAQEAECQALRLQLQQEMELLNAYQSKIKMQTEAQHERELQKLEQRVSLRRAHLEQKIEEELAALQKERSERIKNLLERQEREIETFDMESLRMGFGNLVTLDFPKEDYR
Read-out: enzyme activity
Mode: inhibitor
Tested at: 0.5 µM
Baseline: control
| Compound | remaining activity |
| --- | --- |
| CC(C)n1cnc2c(Nc3cccc(Cl)c3)nc(NCCO)nc21 | 91.8% |
| FC(F)(F)c1ccc(/C=C/c2nc(COc3ccc(CCCCn4ccnn4)cc3)co2)cc1 | 93% |
| O=C(c1ccccc1)c1ccc(N2CCOCC2)cc1O | 99% |
| N#C/C(=C(/N)SC1C=CC=CC1)c1cccc(C(O)c2ccncc2)c1 (centres unmarked) | 93.8% |
| CNc1cc2c(Nc3cccc(Br)c3)ncnc2cn1 | 94% |
| O=Nc1c(-c2c(O)[nH]c3ccccc23)[nH]c2ccccc12 | 62.6% |
| O=C1c2ccccc2-c2nc3nnnn3nc21 | 90.8% |
| O=C(O)/C=C/c1cc(Br)c(Br)c(Br)c1Br | 85.3% |
| C[C@@H](N)[C@H]1CC[C@H](C(=O)Nc2ccncc2)CC1 | 92.1% |
| CC(C)(C)c1nc2c3cc[nH]c(=O)c3c3cc(F)ccc3c2[nH]1 | 50.3% |
| CCCCc1c(-c2ccc(O)cc2)[nH]c2nccnc12 | 82.5% |
| O=c1c(-c2ccc(F)cc2)c(-c2ccncc2)[nH]n1-c1ccc(Cl)cc1 | 89.5% |
| NC(=O)c1ccc(-c2nc(-c3ccc4c(c3)OCCO4)c(-c3ccccn3)[nH]2)cc1 | 103% |
| c1cc(-c2cnn3cc(-c4ccc(OCCN5CCCCC5)cc4)cnc23)ccn1 | 104% |
| N#CC(c1ccnc(NCCc2cccnc2)n1)c1nc2ccccc2s1 (centres unmarked) | 87.5% |
| CC(C)N(CCC(=O)c1ccc2ccccc2c1)Cc1ccccc1 | 87.8% |
| Nc1nc(Nc2ccc(S(N)(=O)=O)cc2)nn1C(=S)Nc1c(F)cccc1F | 10% |
| CCN(CC)CCCCN1c2ccccc2Oc2ccc(Cl)cc21 | 110% |
| NC(=O)c1cccc(-c2cc(Nc3ccc(OC(F)(F)F)cc3)ncn2)c1 | 107% |
| O=C1NC(=O)/C(=C/c2ccc3c(c2)OC(F)(F)O3)S1 | 84.7% |

Series 3
Cell line: Huh-7
Tested at: 10 µM
Time: 24 h
| SMILES | viability [%] |
| --- | --- |
| O=C1O[C@H]([C@@H](O)CO)C(O)=C1O | 98.5 |
| NC(=O)c1ccc([N+](=O)[O-])cc1Cl | 97.2 |
| Nc1nc(/C(=C/CC(=O)O)C(=O)N[C@@H]2C(=O)N3C(C(=O)O)=CCS[C@H]23)cs1 | 97.3 |
| N[C@@H](C(=O)N[C@@H]1C(=O)N2C(C(=O)O)=C(Cl)CS[C@H]12)c1ccccc1 | 100 |
| CN(C)[C@@H]1C(O)=C(C(N)=O)C(=O)[C@@]2(O)C(O)=C3C(=O)c4c(O)ccc(Cl)c4[C@@H](O)[C@H]3C[C@@H]12 | 90.2 |
| O=C(O)c1cc(=O)c2c(OCC(O)COc3cccc4oc(C(=O)O)cc(=O)c34)cccc2o1 | 103 |
| CC(CCc1ccccc1)NCC(O)c1ccc(O)c(C(N)=O)c1 (centres unmarked) | 97 |
| CCCOc1ccc(C(=O)OCCN(CC)CC)cc1N | 98.9 |
| Cc1c(OCC(F)(F)F)ccnc1C[S+]([O-])c1nc2ccccc2[nH]1 (centres unmarked) | 94.8 |
| OCCc1ccccc1 | 98.6 |
| N[C@@H](Cc1c[nH]c2ccccc12)C(=O)O | 103 |
| O=C(O)CCC(=O)c1ccc(-c2ccccc2)cc1 | 103 |
| CC[N+](CC)(CC(=O)Nc1c(C)cccc1C)Cc1ccccc1 | 98 |

Series 4
Compound: Cc1cc(-n2nc(Cc3cc(F)cc(C(F)(F)F)c3)nc2C)ccc1C(N)=O
Tested at: 1 µM
| target | read-out | method | remaining binding |
| --- | --- | --- | --- |
| FLT3 (Homo sapiens, UniProt P36888, D835H) | cell-free assay | competition with immobilised ligand | 100% |
| HCK (Homo sapiens, UniProt P08631) | cell-free assay | competition with immobilised ligand | 100% |
| MET (Homo sapiens, UniProt P08581, Y1235D) | cell-free assay | competition with immobilised ligand | 90% |
| MET (Homo sapiens, UniProt P08581, M1250T) | cell-free assay | competition with immobilised ligand | 80% |
| MAP3K4 (Homo sapiens, UniProt Q9Y6R4) | cell-free assay | competition with immobilised ligand | 98% |
| EGFR (Homo sapiens, UniProt P00533, del747-750/T751S) | cell-free assay | competition with immobilised ligand | 100% |
| CSNK1A1L (Homo sapiens, UniProt Q8N752) | cell-free assay | competition with immobilised ligand | 100% |
| MELK (Homo sapiens, UniProt Q14680) | cell-free assay | competition with immobilised ligand | 100% |
| ACVR1B (Homo sapiens, UniProt P36896) | cell-free assay | competition with immobilised ligand | 93% |
| BMPR2 (Homo sapiens, UniProt Q13873) | cell-free assay | competition with immobilised ligand | 100% |
| BMP2K (Homo sapiens, UniProt Q9NSY1) | cell-free assay | competition with immobilised ligand | 100% |
| CDK13 (Homo sapiens, UniProt Q14004) | cell-free assay | competition with immobilised ligand | 100% |
| FGFR1 (Homo sapiens, UniProt P11362) | cell-free assay | competition with immobilised ligand | 100% |
| CDK19 (Homo sapiens, UniProt Q9BWU1) |  | competition binding | 88% |
| AAK1 (Homo sapiens, UniProt Q2M2I8) | binding |  | 100% |

Excerpt of the above (series 3):
| SMILES | viability [%] |
| --- | --- |
| O=C(O)c1cc(=O)c2c(OCC(O)COc3cccc4oc(C(=O)O)cc(=O)c34)cccc2o1 | 103 |
| CC(CCc1ccccc1)NCC(O)c1ccc(O)c(C(N)=O)c1 (centres unmarked) | 97 |
| CCCOc1ccc(C(=O)OCCN(CC)CC)cc1N | 98.9 |
| Cc1c(OCC(F)(F)F)ccnc1C[S+]([O-])c1nc2ccccc2[nH]1 (centres unmarked) | 94.8 |
| OCCc1ccccc1 | 98.6 |
| N[C@@H](Cc1c[nH]c2ccccc12)C(=O)O | 103 |
| O=C(O)CCC(=O)c1ccc(-c2ccccc2)cc1 | 103 |
